# Published values from different studies.
# CDK9 with cyclin T1: Cyclin-dependent kinase 9, with cyclin T1 (CDK9, Homo sapiens, UniProt P50750)
# Sequence of UniProt P50750 (whole entry, looked up): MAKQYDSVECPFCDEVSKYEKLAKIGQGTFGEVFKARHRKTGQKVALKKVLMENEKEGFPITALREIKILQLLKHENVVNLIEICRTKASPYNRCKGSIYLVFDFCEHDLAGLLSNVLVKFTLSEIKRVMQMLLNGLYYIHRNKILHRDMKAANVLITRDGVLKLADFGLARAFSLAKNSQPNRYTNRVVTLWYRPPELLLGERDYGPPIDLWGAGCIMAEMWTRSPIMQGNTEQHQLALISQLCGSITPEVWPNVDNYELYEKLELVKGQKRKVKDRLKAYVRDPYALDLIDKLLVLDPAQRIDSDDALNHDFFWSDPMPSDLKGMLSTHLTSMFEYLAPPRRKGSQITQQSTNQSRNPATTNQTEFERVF
# CDK9 with cyclin K: Cyclin-dependent kinase 9, with cyclin K (CDK9, Homo sapiens, UniProt P50750)
# CDK9: Cyclin-dependent kinase 9 (CDK9, Homo sapiens, UniProt P50750)
Structure (SMILES),target,assay,setting,how to read,quantity,result
O=C1NC(=O)c2c1c1cc(F)c[n+]3c1c1c2c2cc(O)ccc2[n]1[Ru-4]312([N]=C=S)[S+]3CC[S+]1CC[S+]2CC3 (stereo not drawn),CDK9 with cyclin T1,enzyme activity,"100 nM, human enzyme, with: 10 µM ATP",baseline: untreated,remaining activity,75%
CC(C)[C@H]1NC(=O)C[C@H]2/C=C/CCSSC[C@@H](NC1=O)C(=O)N[C@H](Cc1cccc3ccccc13)C(=O)NCC(=O)O2,CDK9 with cyclin T1,"enzyme activity, inhibitor",10 µM,,inhibition,5.3%
CN(/N=C/c1ccccc1C(=O)O)c1nc(-c2ccccc2Cl)cs1,CDK9 with cyclin K,"enzyme activity, inhibitor",1 µM,,inhibition,-6.85%
CN(C)[C@H]1C[C@@]23CC[C@@]4(O2)C(=CC[C@]2(C)[C@@H](c5ccc6ccncc6c5)CC[C@H]24)C=C3[C@@H](O)[C@@H]1O,CDK9,"ATP probe labelling, inhibitor, KiNativ profiling",0.1 µM,,inhibition,-11.7%
CS(C)(=O)=Nc1ccc(-c2ccc(-c3nc4cc(O[C@@H]5CO[C@H]6[C@@H]5OC[C@H]6O)[nH]c4cc3F)cc2)cc1,CDK9 with cyclin T1,"enzyme activity, inhibitor",10 µM,,inhibition,11%
C[C@H](NCc1ccc(-c2ccc(C(F)(F)F)cc2)cc1)C(N)=O,CDK9,"cell-free assay, competition with immobilised ligand",1 µM,,inhibition,0%
CCOC(=O)[C@@H]1Cc2c(cc([N+](=O)[O-])cc2[N+](=O)[O-])[C@H](O)[C@]12C(=O)Nc1ccc(Br)cc12,CDK9,"binding, competition with immobilised ligand",0.1 µM,,remaining binding,76%
O=C(O)c1ccccc1/C=N/Nc1nc(-c2ccccc2Cl)cs1,CDK9 with cyclin K,"enzyme activity, inhibitor",1 µM,,inhibition,-6.64%
Nc1ccc(/C=C/C(=O)N2CCc3c(oc4c(-c5ccc(F)cc5)cc(-c5ccc(C(=O)N6CCC(F)(F)CC6)cn5)cc34)C2)cn1,CDK9,"binding, competition with immobilised ligand",1 µM,,remaining binding,100%

# For quick reference, copied from above:
Structure (SMILES),target,assay,setting,how to read,quantity,result
Nc1ccc(/C=C/C(=O)N2CCc3c(oc4c(-c5ccc(F)cc5)cc(-c5ccc(C(=O)N6CCC(F)(F)CC6)cn5)cc34)C2)cn1,CDK9,"binding, competition with immobilised ligand",1 µM,,remaining binding,100%
